Assay results pooled from the literature.
Lines come from different studies, so protocols differ. ± marks the error that the study gave.

CN(C)C(=O)c1cc2cnc(Nc3ccc(-c4ccc5c(=O)cc(N6CCOCC6)oc5c4)cc3)nc2n1C1CCCC1 — concentration (BALB/c mouse, lung; oral, 20 mg/kg, 24 h): 7.1 ± 4.2 ng/g
O=C(N[C@H](Cc1c[nH]c2ccccc12)C(=O)Nc1ccncc1)c1ccc(-c2ccc(F)c(Cl)c2)cc1F — concentration (Swiss Webster mouse, female, brain; oral, 50 mg/kg, 8 h, 20% Kolliphor vehicle): 2.6 µM
O=S(=O)(c1ccc(-c2ccc3nccc(Nc4ccncn4)c3c2)cc1)N1CCOCC1 — concentration (female BALB/c mouse, plasma; intraperitoneal, 10 mg/kg, 1 h): 1050 ng/mL
COc1ccc2c3c([nH]c2c1)[C@H](CC(C)C)N1C(=O)[C@H](CC(=O)NC(C)C)NC(=O)[C@@H]1C3 — concentration (wild-type mouse, male, serum; oral, 100 mg/kg, 4 h): 10.8 µM
CSc1cc(Oc2ccnc3[nH]c(=O)cnc23)ccc1NC(=O)Nc1cc(C(C)(C)C)nn1-c1ccccc1 — concentration (nude mouse (female), plasma; oral, 20 mg/kg, 1 h after last dose, end of therapy): 69.4 µM
O=C(N[C@H](Cc1c[nH]c2ccccc12)C(=O)Nc1ccncc1)c1ccc(N2CCN(c3ccc(F)cc3F)CC2)cc1F — concentration (Swiss Webster mouse, female, lung; oral, 50 mg/kg, 2 h, 20% Kolliphor vehicle): 63.5 µM
CC(C)(C)c1cc(NC(=O)Nc2ccc(Oc3ccnc4[nH]c(=O)cnc34)cc2F)n(-c2ccccc2)n1 — concentration (NSG mouse (female), plasma; oral, 20 mg/kg, 1 h after last dose, end of therapy): 24.9 µM
CN1CCCC1CCNS(=O)(=O)c1ccc2c(c1)CN(CC1CCCCC1)CC2 (centres unmarked) — concentration (THY-Tau22 mouse, plasma; oral in diet, 0.002% in diet, 6 months, sampled at 8 p.m.): 4.36 ng/mL

Excerpt of the above:
CN1CCCC1CCNS(=O)(=O)c1ccc2c(c1)CN(CC1CCCCC1)CC2 (centres unmarked) — concentration (THY-Tau22 mouse, plasma; oral in diet, 0.002% in diet, 6 months, sampled at 8 p.m.): 4.36 ng/mL
